Measurements gathered from unrelated publications.
Each numbered part is a random draw from the data of one study; scales do not carry over between parts. Positions count from the first letter of the parent shown.

Series 1
Target: NFE2L2, bZIP domain (human)
Technique: DHFR protein complementation
Matrix: yeast
Notes: single substitutions, most at no-binding floor
Reference: wild-type JUN-FOS pair
Direction: higher = stronger binding
Starting sequence: JUN, bZIP domain (human); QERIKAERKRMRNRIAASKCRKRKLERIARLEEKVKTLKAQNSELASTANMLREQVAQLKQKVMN; partner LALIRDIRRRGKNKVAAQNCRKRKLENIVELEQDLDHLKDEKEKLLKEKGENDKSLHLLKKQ
Variant	binding fitness [natural log]
A40M	-1.48
A46S	-1.31
A40N	-1.49
L52R	-1.53
V35H	-1.21
S43Y	-1.5
S43W	-1.43
L31E	-1.48
T37V	-1.55
A57S	-1.25
Q41R	-1.52
L59S	-1.5
L31C	-1.42
K36G	-1.41
K34R	-1.28
S43C	-1.46
R53P	-1.51
A40P	-1.47
L45Y	-1.49
S43V	-1.41
L52F	-1.39
K34S	-1.37
A29I	-1.17
R53F	-1.58
S43H	-1.52

Series 2
Target: RING finger protein unkempt homolog, zinc fingers 1-6, GST-SBP tag (UNK, Homo sapiens, UniProt Q9C0B0, residues 30-357)
Technique: RNA Bind-n-Seq
Molecule type: RNA
Matrix: in vitro
Concentration: not given
Notes: RNA with constant flanks, human and mouse sites, ends assumed
Reference: input RNA pool
Direction: higher = stronger binding
Residues (chain): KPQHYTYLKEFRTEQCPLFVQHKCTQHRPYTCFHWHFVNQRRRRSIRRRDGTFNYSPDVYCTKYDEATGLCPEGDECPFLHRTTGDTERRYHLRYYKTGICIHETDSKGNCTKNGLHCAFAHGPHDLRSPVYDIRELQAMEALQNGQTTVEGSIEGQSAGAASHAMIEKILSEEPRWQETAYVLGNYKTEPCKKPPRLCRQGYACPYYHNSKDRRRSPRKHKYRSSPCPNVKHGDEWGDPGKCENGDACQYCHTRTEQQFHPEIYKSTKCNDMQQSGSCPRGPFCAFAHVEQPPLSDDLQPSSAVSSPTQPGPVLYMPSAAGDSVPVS
Strand	bound/input enrichment [ratio]
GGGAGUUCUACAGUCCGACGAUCUUCAUGUUCAUUAAUGAUUUGGAACAAUGCCAGUGGAUCCGACAGAAGUUUGAGACCCCUGGAAUCAUGCAGUUCACCAAUGAGGAGAAGCGGACCUUGCUGGCCAGGCUUGUACGAUCCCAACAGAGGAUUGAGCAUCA	0.138
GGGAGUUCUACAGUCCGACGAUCACCUAUGAUCGAGUAUACCAUGCUGUGUCUGUUAUGCGGCAAAGCCGAAGAUACUAUCAGUAUUCUCCCUGAUGACCCCCGACAAAUGACUCUCUUAUUCUAAGGAUCCUUCUACAGAUCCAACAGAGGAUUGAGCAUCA	0.0673
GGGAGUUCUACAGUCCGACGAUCUUUGAAGUACCUGGUCUUAGCAUCUGGACAGACCUCUUAUUAGCUCUUCGUAGUGGUGCAUUUAGGAAAAGACAAGUUUUGGGUCUCAGCGCAGGCCUCAGUUCUGUAUAGGCAAUGCUGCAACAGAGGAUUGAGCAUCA	9.41
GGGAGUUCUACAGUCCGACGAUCAUGAAAUUUUGGCCUAAAACAUGCAGUCAAAAAGAGGUCAUGUUCCUCGGGGAGCUGGAAGAAAUCUUGGAUGUGAUUGAACCGUCACAAUUUGUUAAAAUCCAAGAACCUUUGUUUAAACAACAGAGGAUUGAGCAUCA	0.134
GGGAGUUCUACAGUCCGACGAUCCCCCUCCCCUCUAUCCAGGGGCAGGUCCCAGGGGCUUUCUACUUCCAGUUGCCAAUUGUGUUGCUUUCUAUUUGUUGAAAAUGUACGUUUAAAUUUAAAAUCACUUUUUUAAACAGAAGACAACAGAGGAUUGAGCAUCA	0.175
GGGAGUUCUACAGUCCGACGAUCGAGAAUCAGGAAUCAUUGAGAUCUCUGGGAGCAUGGAACCUGGAGAAUUUGAGAUCUCCAGAGGAGGUAGACAAGGAAAGUCAAAGGAAUCUGGAAGAGGAAGAGAACCUGGGAAAGGGACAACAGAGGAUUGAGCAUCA	0.511
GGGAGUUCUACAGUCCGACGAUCGUGGGAGUUCUCCUUCAGGAUCAUGAUGUUCGUCAGAGUGAAUUUCAGCAACUUCCCUACCAUCGAAUUUUUAUCAUGCUUCUCUUGGAACUCAAUGCACCUGAGCAUGUGUUGGAAACCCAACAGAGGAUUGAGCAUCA	0.183
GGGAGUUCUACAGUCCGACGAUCGAUAAGAGCAUGCAAGACCGCUUGAGACUGGGCCACUUUACUACUGUCCGACACGGAGCCUCAUUUACUGAACAGUGGACAGAUGGUUAUGCUUUUCAGAAUCUUAUCAAGCAACAGGAACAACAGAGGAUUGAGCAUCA	0.146
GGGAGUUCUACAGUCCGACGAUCUCCCCCUUCCCAGCUUCCCAGGCAUUGCCCAGCUACCCCCACUCUUUCCCUCCCCCAACAAGCCUCUCUGUCUCCAAUCAGCCCCCCAAGUAUACUCAGCCUUCUCUCCCAUCCCAGGCUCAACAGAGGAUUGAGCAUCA	1.32
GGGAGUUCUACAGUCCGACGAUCCAGAUUGGGAAAAUGAGGUACGUUAGUGUUCGCGAUUUUAAAGGCAAAGUGCUAAUUGAUAUUAGAGAAUAUUGGAUGGAUCCUGAAGGUGAAAUGAAACCAGGAAGAAAAGGUAUUUCUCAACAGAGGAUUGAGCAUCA	0.585
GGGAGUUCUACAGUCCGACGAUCACCUUUGAUUUCAAAGGCGUGAUUGACUACAUUUUCUAUUCCAAGACUCAUAUGAACGUGCUUGGUGUCCUGGGGCCUUUAGAUCCUCAAUGGCUGGUUGAGAACAACAUCACUGGGUGUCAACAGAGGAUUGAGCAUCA	0.206

Series 3
Target: UBE2H UBC core domain (UniProt P62256)
Chain of UniProt P62256 (whole entry, looked up): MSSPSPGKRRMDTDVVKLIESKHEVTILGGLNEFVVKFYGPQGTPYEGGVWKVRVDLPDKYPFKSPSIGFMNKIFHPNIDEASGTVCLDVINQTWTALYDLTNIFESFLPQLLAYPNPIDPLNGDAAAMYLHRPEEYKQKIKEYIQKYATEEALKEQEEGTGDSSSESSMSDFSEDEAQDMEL
Technique: yeast two-hybrid
Matrix: yeast
Notes: mostly zero background
Reference: not given
Direction: higher = stronger interaction
B1: DEF8 RING domain (UniProt Q6ZN54); chain AGRLGCSLTEIHTLFAKHIKLDCERCQAKGFVCELCREGDVLFPFDSHTSVCADCSAVFHRDCYYDNSTTCPKCARLSLRK
B2: ANAPC11 RING domain (UniProt Q9NYG5); chain GICRMAFNGCCPDCKVPGDDCPLVWGQCSHCFHMHCILKWLHAQQVQQHCPMCRQEWKFKE
B3: RNF2 RING domain (UniProt Q99496); chain SPRSLHSELMCPICLDMLKNTMTTKECLHRFCADCIITALRSGNKECPTCRKKLVSKRSLR
B4: RNF31 RING domain (UniProt Q96EP0); chain AFLRRLLAQECAVCGWALPHNRMQALTSCECTICPDCFRQHFTIALKEKHITDMVCPACGRPDLTDDTQLL
B5: RNF183 RING domain (UniProt Q96D59); chain EQQGRELEAECPVCWNPFNNTFHTPKMLDCCHSFCVECLAHLSLVTPARRRLLCPLCRQPTVLASGQP
Sequence	lacZ reporter activity
B1 (DEF8 RING domain)	0
YCEMGSTFQLCKICAENDKDVKIEPCGHLMCTSCLTAWQESDGQGCPFCRCEIKGTEPII (CBLB RING domain (UniProt Q13191))	0
MNDVLENELQCIICSEYFIEAVTLNCAHSFCSYCINEWMKRKIECPICRKDIKSKTYSL (RNF8 RING domain (UniProt O76064))	0
B2 (ANAPC11 RING domain)	0
PEELAVNNDDCAICWDSMQAARKLPCGHLFHNSCLRSWLEQDTSCPTCRMSLNIADNNR (AMFR RING domain (UniProt Q9UKV5))	0
B3 (RNF2 RING domain)	0
B4 (RNF31 RING domain)	0
LGTKLEAKYLCSACRNVLRRPFQAQCGHRYCSFCLASILSSGPQNCAACVHEGIYEEGIS (TRAF2 RING domain (UniProt Q12933))	0
B5 (RNF183 RING domain)	0
QVQSRTKIEECVVCSDKKAAVLFQPCGHMCACENCANLMKKCVQCRAVVERRVPFI (MIB1 RING domain (UniProt Q86YT6))	0

Series 4
Target: ABI1, truncated, D143A, DHFR fusion (Arabidopsis thaliana)
Technique: DHFR PCA, deep sequencing
Matrix: yeast
Notes: methotrexate growth selection, single substitutions
Added: (+)-ABA 710 µM
Reference: wild-type fitted maximum
Direction: higher = stronger binding
Starting sequence: PYL1, truncated, DHFR fusion (Arabidopsis thaliana); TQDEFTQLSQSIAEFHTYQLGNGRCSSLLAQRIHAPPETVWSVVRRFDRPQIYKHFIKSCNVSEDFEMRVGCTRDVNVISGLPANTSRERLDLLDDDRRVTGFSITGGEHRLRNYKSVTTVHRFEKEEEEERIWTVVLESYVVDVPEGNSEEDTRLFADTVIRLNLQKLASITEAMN; partner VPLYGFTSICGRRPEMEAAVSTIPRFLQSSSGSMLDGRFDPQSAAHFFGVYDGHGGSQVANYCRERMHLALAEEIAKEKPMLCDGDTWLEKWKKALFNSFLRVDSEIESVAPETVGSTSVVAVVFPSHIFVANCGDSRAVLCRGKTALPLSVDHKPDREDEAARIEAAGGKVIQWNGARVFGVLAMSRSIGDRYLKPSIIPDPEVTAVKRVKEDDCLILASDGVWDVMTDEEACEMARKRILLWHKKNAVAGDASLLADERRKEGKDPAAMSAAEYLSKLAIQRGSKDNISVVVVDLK
Variant	relative binding score [%]
I162T	59
A170D	60.1
G21M	101
T154I	85.3
F15R	85.3
V145D	9.04
T154W	-11.1
N85E	99.8
D3T	110
R123A	108
L156Q	98.4
G148M	87.9
E131F	106
S150N	98
R88Q	108
F103D	-8.57
S140G	54.5

Series 5
Target: CCNF, cyclin fold, Cln2 fusion (human)
Technique: yeast growth competition, sequencing
Matrix: yeast
Notes: strong parent motif
Reference: not given
Direction: higher = stronger binding
Starting sequence: SLBP docking peptide (human); ARYKRKLLINDFG
Variant	normalised enrichment score
R2P	2.04
L8H	1.21
I9Q	1.14
A1Y	0.84
R2H	1.37
L7Q	1.24
G13D	0.973
G13T	2.03
K6L	2.08
K4E	0.5
R5K L8F	0.871
K4A	1.63
Y3I	2.08
K4S	1.58
F12L	2.34
R5S	1.93
D11M	3.51
A1V	1.18
R2S	0.355
K4Q	0.977
A1E	0.539
K4T	0.263
I9S	1.85

A few entries again (series 1):
Variant	binding fitness [natural log]
A46S	-1.31
A40N	-1.49
L52R	-1.53
V35H	-1.21
S43Y	-1.5
S43W	-1.43
L31E	-1.48
T37V	-1.55
A57S	-1.25
Q41R	-1.52
L59S	-1.5
L31C	-1.42
